Results of several laboratories.
Each line is one published result; not all experiments were run side by side. Numbers after ± are the reported error.

Compound | cell line | assay | setting | IC50
CCCCCC/C=C1\CC2C=CC=CC1C2C1CCCCC1=O (stereo not shown) | normal fibroblasts | cytotoxicity |  | 127 ± 11 nM
CC[C@@H](C)[C@H]1NC(=O)[C@H](Cc2ccc(-c3ccccc3)cc2)NC(=O)[C@H](CC(C)C)NC(=O)[C@@H]2[C@@H](c3ccccc3)CCN2C(=O)[C@H](NC(=O)[C@@H](CCCNC(=N)N)NC(=O)[C@@H](CCCNC(=N)N)NC(C)=O)CSCSC[C@@H](C(=O)N[C@H](CCCNC(=N)N)C(=O)N[C@H](CCCNC(=N)N)C(N)=O)NC(=O)[C@H](C(C)C)NC(=O)[C@@H]2CCCN2C(=O)[C@H](CC(=O)O)NC(=O)[C@H](Cc2ccc(O)cc2)NC(=O)[C@@](C)(CO)NC1=O | A-375 (BRAF V600E) | AlphaScreen, refers to: pERK | 18 h | > 50000 nM
COc1cc2c3c(n(CCCNCCO)c(=O)c2cc1OC)-c1nc2c(cc1C3=O)OCO2 | CHLA-32 Ewing sarcoma cells | cytotoxicity, MTS | 72 h | 96 nM
CCCCN1C[C@H](O)[C@@H](O)[C@@H](O)[C@H]1CO | sample BA patient fibroblasts | Gb3 level lowering, LC-MS/MS, refers to: Gb3 d18:1/24:0 | 216 h | 22000 nM
CS(=O)(=O)CCNCc1ccc(-c2ccc3ncnc(Nc4ccc(OCc5cccc(F)c5)c(Cl)c4)c3c2)o1 | Ba/F3 expressing HER2 S310F | cell growth, inhibitor, CellTiter-Glo |  | 24.9 nM
C/C=C1\NC(=O)[C@H]2CSSCC/C=C/[C@H](CC(=O)N[C@H](C(C)C)C(=O)N2)OC(=O)[C@H](C(C)C)NC1=O | MP38 uveal melanoma BAP1-mutant | cell viability, CellTiter-Glo | 72 h | 0.892 nM
CC(=O)Nc1ccc(O)cc1 | THLE-2, 3D culture | MTT | 96 h | 157500 ± 523 nM
CCCCC1=CC2C=CC=CC1C2C1CCCCC1=O (stereo not shown) | normal fibroblasts | cytotoxicity |  | 246 ± 19 nM
C=CC(=O)NC1CCN(c2ncc3ncnc(Nc4ccc(Oc5ccc6c(c5)ncn6C)c(C)c4)c3n2)CC1 | Ba/F3 expressing HER2 S310F | cell growth, inhibitor, CellTiter-Glo |  | 0.9 nM
CCS(=O)(=O)Nc1ccc(Oc2ccc(F)cc2F)c(-c2cn(C)c(=O)c3[nH]ccc23)c1 | MP38 uveal melanoma BAP1-mutant | cell viability, CellTiter-Glo | 72 h | 188 nM
COc1cc2c3c(n(CCCNC(C)C)c(=O)c2cc1OC)-c1nc2c(cc1C3=O)OCO2 | CHLA-32 Ewing sarcoma cells | cytotoxicity, MTS | 72 h | 55 nM
CC[C@]1(O)C[C@H]2CN(CCc3c([nH]c4ccccc34)[C@@](C(=O)OC)(c3cc4c(cc3OC)N(C=O)[C@H]3[C@@](O)(C(=O)OC)[C@H](OC(C)=O)[C@]5(CC)C=CCN6CC[C@]43[C@@H]65)C2)C1 | N6/ADR, multidrug resistant | MTT | 48 h | 9 nM
O=C1CCCCC1C1C2C=CC=CC1C(CCCCOC1CCCCO1)=C2 (stereo not shown) | normal fibroblasts | cytotoxicity |  | 784 ± 72 nM
C=C(F)C(=O)N1CCN(c2nc(OC[C@@H]3CCCN3C)nc3c2CCN(c2cccc4cccc(Cl)c24)C3)C[C@@H]1CC#N | EBC-1 | cell viability, 3D CellTiter-Glo |  | > 1000 nM
COc1cccc(NC(=S)N/N=C/c2cccc3cc4ccccc4nc23)c1 | PATU | cell proliferation, MTT | 48 h | > 50000 nM
CN1CCN(c2ccc3nc(-c4c(N)c5c(F)cccc5[nH]c4=O)[nH]c3c2)CC1 | primary AML mononuclear cells, FLT3-ITD positive | cell viability, MTS | ex vivo | 1120 nM
O=[N+]([O-])c1ccc(Sc2cccc[n+]2[O-])c2nonc12 | MP38 uveal melanoma BAP1-mutant | cell viability, CellTiter-Glo |  | 322 nM

Compound | cell line | assay | setting | IC50
C=CC(=O)Nc1cc(Nc2nccc(-c3cn(C)c4ccccc34)n2)c(OC)cc1N(C)CCN(C)C | Ba/F3 EGFR L858R/T790M/C797S | cell growth | 72 h | 2680 nM
COc1ccc(NC(=S)N/N=C/c2cccc3cc4ccccc4nc23)cc1 | PATU | cell proliferation, MTT | 48 h | > 50000 nM
Cc1c(C(=O)O)ccc2c3n(nc12)[C@@H]1[C@H](C3)N(CC2CC2)[C@@]2(C(=O)Nc3cc(Cl)ccc32)[C@H]1c1cccc(Cl)c1F | RKO (MDM2 non-amplified) | cell growth, alamarBlue | 120 h | 59 nM
Cc1nc(NC(=O)N2CCC[C@H]2C(N)=O)sc1-c1ccnc(C(C)(C)C(F)(F)F)c1 | TCC-SUP | cell growth, CellTiter-Glo | 120 h | 1100 nM
O=C1CCCCC1C1C2C=CC=CC1C(CCN1C(=O)c3ccccc3C1=O)=C2 (stereo not shown) | normal fibroblasts | cytotoxicity |  | 196 ± 19 nM
Cn1cc(CNCC2CCN(c3ncc(C(=O)NO)cn3)CC2)c2ccccc21 | MP38 uveal melanoma BAP1-mutant | cell viability, CellTiter-Glo | 72 h | 11.6 nM
CC[C@H](C)[C@@H]1NC(=O)[C@H](Cc2ccc(-c3ccccc3)cc2)NC(=O)[C@H](CC(C)C)NC(=O)[C@@H]2[C@@H](c3ccccc3)CCN2C(=O)[C@H](NC(=O)[C@@H](CCCNC(=N)N)NC(=O)[C@@H](CCCNC(=N)N)NC(=O)[C@H](CCCCN=[N+]=[N-])NC(C)=O)CSCSC[C@@H](C(=O)N[C@H](CCCNC(=N)N)C(=O)N[C@H](CCCNC(=N)N)C(N)=O)NC(=O)[C@H](C(C)C)NC(=O)[C@@H]2CCCN2C(=O)[C@H](CC(=O)O)NC(=O)[C@H](Cc2ccc(O)cc2)NC(=O)[C@](C)(CO)NC1=O | A-375 (BRAF V600E) | AlphaScreen, refers to: pERK | 18 h | > 50000 nM
CN1CCC(NC2CCc3[nH]c4c(C(N)=O)ccc(-c5ccccc5Cl)c4c3C2)CC1 (stereo not shown) | MCF7/PTX, paclitaxel-resistant | cell growth, CellTiter-Glo | 96 h | 29 nM
Cc1cc(Nc2ncnc3ccc(NC4=NC(C)(C)CO4)cc23)ccc1Oc1ccn2ncnc2c1 | Ba/F3 expressing HER2 V659E | cell growth, inhibitor, CellTiter-Glo |  | 88.5 nM
O=c1[nH]cc(F)c(=O)[nH]1 | HIEC cells | cell viability, CCK-8 | 48 h | 46400 nM
COC(=O)CCC1=CC2C=CC=CC1C2C1CCCCC1=O (stereo not shown) | normal fibroblasts | cytotoxicity |  | 562 ± 42 nM
Cc1cn(C2CCN(Cc3ccnc(Oc4cccc(Cl)c4)c3)CC2)c(=O)[nH]c1=O | MRC-5 cells | cytotoxicity | 3 days | 58900 nM
O=C(CCCCCONC(=O)c1nc(-c2ccccn2)cs1)NO | neonatal foreskin fibroblasts | cytotoxicity, sulforhodamine B | 72 h | 7130 nM
CC(=O)O[C@H]1C(=O)[C@@]2(C)[C@H]([C@H](OC(=O)c3ccccc3)[C@]3(O)C[C@H](OC(=O)[C@H](O)[C@@H](NC(=O)c4ccccc4)c4ccccc4)C(C)=C1C3(C)C)[C@]1(OC(C)=O)CO[C@@H]1C[C@@H]2O | KB-C2 | cell viability |  | 3910 ± 264 nM
C=CCn1c(=O)c2cnc(Nc3ccc(N4CCN(C)CC4)cc3)nc2n1-c1ccc2c(n1)[C@@](O)(CC)CC2 | MDA-MB-231 | cell viability, CellTiter-Glo | 72 h | 627 nM
CC(C)(C)c1cc(NC(=O)Nc2ccc(-c3cn4c(n3)sc3cc(OCCN5CCOCC5)ccc34)cc2)no1 | primary AML mononuclear cells, FLT3-ITD positive | cell viability, MTS | ex vivo | 875 nM
Cc1noc2c1-c1ccc(-c3cnn(C)c3)cc1C(c1ccc(Cl)cc1)=N[C@H]2CC(N)=O | MP38 uveal melanoma BAP1-mutant | cell viability, CellTiter-Glo |  | 344 nM

A few entries again:
Compound | cell line | assay | setting | IC50
CN1CCN(c2ccc3nc(-c4c(N)c5c(F)cccc5[nH]c4=O)[nH]c3c2)CC1 | primary AML mononuclear cells, FLT3-ITD positive | cell viability, MTS | ex vivo | 1120 nM
O=[N+]([O-])c1ccc(Sc2cccc[n+]2[O-])c2nonc12 | MP38 uveal melanoma BAP1-mutant | cell viability, CellTiter-Glo |  | 322 nM
C=CC(=O)Nc1cc(Nc2nccc(-c3cn(C)c4ccccc34)n2)c(OC)cc1N(C)CCN(C)C | Ba/F3 EGFR L858R/T790M/C797S | cell growth | 72 h | 2680 nM
COc1ccc(NC(=S)N/N=C/c2cccc3cc4ccccc4nc23)cc1 | PATU | cell proliferation, MTT | 48 h | > 50000 nM
Cc1c(C(=O)O)ccc2c3n(nc12)[C@@H]1[C@H](C3)N(CC2CC2)[C@@]2(C(=O)Nc3cc(Cl)ccc32)[C@H]1c1cccc(Cl)c1F | RKO (MDM2 non-amplified) | cell growth, alamarBlue | 120 h | 59 nM
